Measured values collected from several papers.
A part holds a random share of what one study measured. “And” joins repeats or separate records; there may be more than shown.
Sequence of UniProt P41143 (whole entry, looked up): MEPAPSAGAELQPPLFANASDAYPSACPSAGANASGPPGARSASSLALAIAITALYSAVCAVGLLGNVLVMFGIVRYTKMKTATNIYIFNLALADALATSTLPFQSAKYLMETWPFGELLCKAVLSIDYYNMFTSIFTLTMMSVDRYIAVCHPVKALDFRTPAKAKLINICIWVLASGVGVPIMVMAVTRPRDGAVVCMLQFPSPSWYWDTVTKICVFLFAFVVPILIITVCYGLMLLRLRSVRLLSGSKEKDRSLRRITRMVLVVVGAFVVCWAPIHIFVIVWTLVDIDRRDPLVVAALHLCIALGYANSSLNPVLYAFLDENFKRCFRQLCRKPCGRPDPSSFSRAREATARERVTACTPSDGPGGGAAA
Sequence of UniProt P28223 (whole entry, looked up): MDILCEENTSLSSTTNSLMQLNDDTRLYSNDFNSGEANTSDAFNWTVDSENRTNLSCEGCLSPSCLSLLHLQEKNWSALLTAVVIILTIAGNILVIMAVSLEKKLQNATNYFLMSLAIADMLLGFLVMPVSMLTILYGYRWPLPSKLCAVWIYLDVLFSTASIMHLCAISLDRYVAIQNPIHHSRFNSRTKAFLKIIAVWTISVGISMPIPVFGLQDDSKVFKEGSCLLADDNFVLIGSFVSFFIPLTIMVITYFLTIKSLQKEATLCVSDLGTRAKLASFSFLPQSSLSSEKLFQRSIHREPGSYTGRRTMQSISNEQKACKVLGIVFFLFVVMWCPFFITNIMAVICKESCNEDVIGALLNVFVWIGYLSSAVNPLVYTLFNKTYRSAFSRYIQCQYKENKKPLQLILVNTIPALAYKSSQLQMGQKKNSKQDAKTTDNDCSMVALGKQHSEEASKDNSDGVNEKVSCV
Sequence of UniProt P28335 (whole entry, looked up): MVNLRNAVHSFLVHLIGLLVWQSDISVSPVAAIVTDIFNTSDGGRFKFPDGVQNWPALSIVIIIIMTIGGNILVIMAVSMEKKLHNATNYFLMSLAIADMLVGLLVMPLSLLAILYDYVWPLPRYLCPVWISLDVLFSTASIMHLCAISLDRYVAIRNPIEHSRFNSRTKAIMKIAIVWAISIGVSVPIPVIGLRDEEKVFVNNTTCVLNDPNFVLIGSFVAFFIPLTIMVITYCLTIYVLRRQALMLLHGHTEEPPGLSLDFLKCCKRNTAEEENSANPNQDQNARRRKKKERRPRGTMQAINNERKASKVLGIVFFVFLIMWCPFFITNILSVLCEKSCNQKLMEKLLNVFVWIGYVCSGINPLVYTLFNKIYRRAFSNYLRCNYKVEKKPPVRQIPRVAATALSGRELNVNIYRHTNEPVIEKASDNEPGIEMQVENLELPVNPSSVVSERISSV

Study 1 — matrix: plasma; route: intravenous
Structure (SMILES): O=C1CCC(N2Cc3c(ccc4c3OCC43CCN(Cc4ccccc4)CC3)C2=O)C(=O)N1 (stereo not drawn)
test system	setting	MRT(0-inf)
male Sprague-Dawley rat	1 mg/kg	2.62 h
ICR mouse, male	1.0 mg/kg	1.64 h
male ICR mice	1.0 mg/kg	1.45 h and 2.32 h

Study 2 — cell line: HEK-293T-ACE2-TMPRSS2; technique: cell count; concentration: 10 µM
Structure (SMILES)	viability [%]
CCN1CCN(C(=O)c2c(C)oc3c2C(=O)c2ccccc2C3=O)CC1	77
O=C(c1ccc(-n2c(-c3ccccc3)nc3cccnc32)cc1)N1CCN(c2ccccn2)CC1	78
O=C(Cc1ccc2c(c1)OCCO2)Nc1ccc(-c2nccs2)cc1	109
O=C(NCCc1csc(-c2ccccc2)n1)[C@H]1CCCN1C(=O)c1ccco1	70
OC(CNCC1COc2ccccc2C1)COc1ccc(Cl)cc1Cl (stereo not drawn)	88

Study 3 — read-out: binding; technique: radioligand binding; concentration: 10 µM
Structure (SMILES): CNC(=O)c1cc(C(=O)N[C@H]2[C@@H]3COC[C@@H]32)cc2c1O[C@@H](CF)[C@@H]2c1ccccc1
target	inhibition [%]
5-hydroxytryptamine receptor 2C (HTR2C, Homo sapiens, UniProt P28335)	-11
Delta-type opioid receptor (OPRD1, Homo sapiens, UniProt P41143)	17.1
5-hydroxytryptamine receptor 2A (HTR2A, Homo sapiens, UniProt P28223)	11.6

Single results of other studies — cell line: A-375; concentration: 100 µM
SMILES	setting	viability [%]
CCN1CC2(COC)CCC(OC)C34C5CC6(O)C(OC)CC(OC(C)=O)(C5C6C(=O)c5ccc(OC)cc5)C(C(OC)C23)C14 (stereo not drawn)	36 h	95
C[C@@H]1C[C@@H]([C@H](O)CC2CC(=O)NC(=O)C2)C(=O)[C@@H](C)C1	36 h	47.4
N#Cc1nn(-c2c(Cl)cc(C(F)(F)F)cc2Cl)c(N)c1[S+]([O-])C(F)(F)F (stereo not drawn)	18 h	44.6
NCC(CC(=O)O)c1ccc(Cl)cc1 (stereo not drawn)	18 h	92.4

Repeated from above (study 2):
Structure (SMILES)	viability [%]
O=C(c1ccc(-n2c(-c3ccccc3)nc3cccnc32)cc1)N1CCN(c2ccccn2)CC1	78
O=C(Cc1ccc2c(c1)OCCO2)Nc1ccc(-c2nccs2)cc1	109
